Experimental data of several laboratories.
± marks the error that the study gave. Ends that are not written are not given here.
B1: HPV E7 protein; chain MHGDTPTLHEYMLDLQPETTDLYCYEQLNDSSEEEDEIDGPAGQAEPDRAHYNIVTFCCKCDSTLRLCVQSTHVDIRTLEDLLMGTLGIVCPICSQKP
B2: Rad9 protein; chain MSGQLVQWKSSPDRVTQSAIKEALHSPLADGDMNEMNVPVDPLENKVNSTNIIEGSPKANPNPVKFMNTSEIFQKSLGLLDESPRHDDELNIEVGDNDRPNANILHNERTPDLDRIANFFKSNRTPGKENLLTKYQSSDLEDTPLMLRKKMTFQTPTDPLEQKTFKKLKSDTGFCYYGEQNDGEENASLEVTEADATFVQMAERSADNYDCALEGIVTPKRYKDELSKSGGMQDERVQKTQIMISAESPNSISSYDKNKITGNGRTTRNVNKVFNNNEDNIGAIEEKNPVKKKSENYSSDDLRERNNQIIQSNESEEINELEKNLNVSGRENDVNNLDIDINSAVSGTPSRNNAEEEMYSSESVNNREPSKKWIFRYSKDKTENNSNRSTQIVNNPRTQEMPLDSISIDTQPLSKSFNTETNNELETQIIVSSLSQGISAQKGPVFHSTGQTEEIKTQIINSPEQNALNATFETPVTLSRINFEPILEVPETSSPSKNTMSKPSNSSPIPKEKDTFNIHEREVETNNVFSNDIQNSSNAATRDDIIIAGSSDFNEQKEITDRIYLQLSGKQISDSGSDETERMSPNELDTKKESTIMSEVELTQELPEVEEQQDLQTSPKKLVVEEETLMEIKKSKGNSLQLHDDNKECNSDKQDGTESLDVALIEHESKGQSSELQKNLMQLFPSESQEIIQNRRTIKRRQKDTIEIGEEEENRSTKTSPTKHLKRNSDLDAASIKREPSCSITIQTGETGSGKDSKEQSYVFPEGIRTADNSFLSKDDIIFGNAVWCQYTWNYKFYPGILLEVDTNQDGCWIYFETGRSLTKDEDIYYLDIRIGDAVTFDGNEYVVVGLECRSHDLNIIRCIRGYDTVHLKKKNASGLLGKRTLIKALSSISLDLSEWAKRAKIILEDNEKNKGDAYRYLRHPIRGRKSMTNVLSPKKHTDDEKDINTHTEVYNNEIESSSEKKEIVKKDSRDALAEHAGAPSLLFSSGEIRTGNVFDKCIFVLTSLFENREELRQTIESQGGTVIESGFSTLFNFTHPLAKSLVNKGNTDNIRELALKLAWKPHSLFADCRFACLITKRHLRSLKYLETLALGWPTLHWKFISACIEKKRIVPHLIYQYLLPSGESFRLSLDSPSKGGIIKSNNIFSFYTQFLRGSNLRDQICGVKKMLNDYIVIVWGRSELDSFVKFAFACLSAGRMLTIDLPNIDVDDTEPLLNALDSLVPRIGSELSNRKLKFLIYANENNGKSQMKLLERLRSQISLKFKKFNYIFHTESKEWLIQTIINEDTGFHDDITDNDIYNTISEVR

| Molecule | target or system | test | system | conditions | scale | endpoint | value |
| --- | --- | --- | --- | --- | --- | --- | --- |
| B1 (HPV E7 protein) | Retinoblastoma-associated protein, phosphorylated; with E2F (Homo sapiens, UniProt P06400, del245-267/del582-642) | activator, fluorescence polarization |  | together with: phosphorylated Rb 20 nM | reference: unphosphorylated Rb over phosphorylated Rb | maximal activation | ~100% |
| Spike receptor binding domain (SARS-CoV-2) | ACE2 recombinant ectodomain 18-740 (Homo sapiens, UniProt Q9BYF1) | SPR |  |  |  | Kd | 77.1 nM |
| L1/L2 (human papillomavirus 16) | ANXA2/S100A10 heterotetramer (Homo sapiens) | flow cytometry | LC | 48 hr, together with: HPV16 pseudovirions | higher = more MHC II | cell surface MHC II | 624 MFI |
| LYDKLVSSF |  | AIM | peptide, CD8+ T cells from PBMC, human donors | dose not given |  | response magnitude per positive donor | 112 |
| QPLRKLCILHRNPGRCYQKIPAFYYNQKKKQCEGFTWSGCGGNSNRFKTIEECRRTCIRK (dendrotoxin I; ends and bridges not checked; cysteine pairing not given here; sequence looked up) | Kcnma1 (Rattus norvegicus, UniProt Q62976) | blocker, planar bilayer single channel |  | together with: BP |  | coupling free energy | 1.3 kcal/mol |
| pertussis toxin | ADRB2 (Homo sapiens, UniProt P07550) | HTRF, refers to: pERK/total ERK | HEK293 expressing ADRB2 | concentration not given, overnight |  | constitutive ERK1/2 phosphorylation | decreased |
| GRKKRRQRRRPQEDGGSFAYGAMKALAG (Tat peptide W2A/Y10A (HIV)) | CIB1 (Homo sapiens, UniProt Q99828) | competition with peptide, competitor, TR-FRET | peptide |  |  | IC50 | > 10000 nM |
| MnTx-1 mature (Pterinochilus murinus, UniProt C0HMD2) | KCNA6 (Homo sapiens, UniProt P17658) | K+ current inhibition, inhibitor, patch-clamp |  | whole-cell |  | IC50 | 4.4 nM |
| B2 (Rad9 protein) | Transcriptional regulatory protein EmbR (embR, Mycobacterium tuberculosis, UniProt P9WGJ9) |  |  |  |  | Kd | 58 ± 25 nM |
| Nef monomer, full length (HIV-1, UniProt P03407) | BTK SH3-SH2 dimer (Mus musculus) | SPR |  |  |  | Kd | 7640 nM |
| ACE2/pIgR VHH6 Fc fusion ACE2 , Fc fusion (Homo sapiens) | spike RBD RBD (SARS-CoV-2, UniProt P0DTC2) | BLI |  |  |  | Kd | 101 nM |
| NVYADSFVIR |  | AIM | peptide, CD8+ T cells from PBMC, human donors | dose not given |  | response magnitude per positive donor | 108 |
| clpS (Mycolicibacterium smegmatis) | clpC1 (Mycobacterium tuberculosis, UniProt P9WPC9) | MST |  | apparent |  | Kd | 100000 ± 160000 nM |
| DDX1 (Homo sapiens, UniProt Q92499) | Rev 1-116 C to S both cysteines, Alexa Fluor 555 label (HIV-1) | single-molecule TIRF |  | 150 nM, together with: AMP-PNP 1 mM |  | average Rev oligomer size | 3.81 Rev monomers |
| RSV F/foldon soluble ectodomain S155C/S290C/D486H/E487Q/F488W/D489H (respiratory syncytial virus) | itself | SEC |  |  |  | subunits per oligomer | 3 |
| BKRF4 fragment (Epstein-Barr virus) | H2A/H2B dimer (Homo sapiens) | ITC |  | 25 °C, NaCl 0.5 M |  | molecule per partner | 1 |

Excerpt of the above:
| Molecule | target or system | test | system | conditions | scale | endpoint | value |
| --- | --- | --- | --- | --- | --- | --- | --- |
| QPLRKLCILHRNPGRCYQKIPAFYYNQKKKQCEGFTWSGCGGNSNRFKTIEECRRTCIRK (dendrotoxin I; ends and bridges not checked; cysteine pairing not given here; sequence looked up) | Kcnma1 (Rattus norvegicus, UniProt Q62976) | blocker, planar bilayer single channel |  | together with: BP |  | coupling free energy | 1.3 kcal/mol |
